Experimental data pooled from the literature.
“And” joins repeats or separate records; there may be more than shown.
Cell line: UACC-257

NNc1nc(-c2ccc(Cl)cc2)c2c(NC(=O)c3ccccc3)nnc-2[nH]1  cell growth (SRB; 10 µM, NCI60 single-dose screen; relative to: untreated): 103%
O=C1NC(c2ccccc2)(c2ccccc2)C(=O)N1Cc1cn(-c2cc3ccccc3oc2=O)nn1  growth percentage (NCI60 single-dose screen; 10 µM): 101%
CCCN1CCN(c2ccc3[nH]c(-c4ccc5[nH]c(-c6cc(OC)c(OC)c(OC)c6)nc5c4)nc3c2)CC1  growth percent (SRB; 10 µM, 48 h): 71.7%
Cc1cc(C)n(C(=S)[S][Au][PH](CCCCCC[PH]([Au][S]C(=S)n2nc(C)cc2C)(c2ccccc2)c2ccccc2)(c2ccccc2)c2ccccc2)n1  log10 TGI (cell growth, NCI-60 screen; melanoma): > -4
Cc1n[nH]c2nc(-c3ccc(Cl)cc3)c3c(NC(=O)c4ccccc4)nnc-3n12  cell growth (SRB; 10 µM, NCI60 single-dose screen; relative to: untreated): 107%
CCCC(CCC)C(=O)OCc1cn(-c2c3ccccc3nc3ccccc23)nn1  growth percentage (NCI60 single-dose screen; 10 µM): 101%
CCOc1ccc(-c2nc3cc(-c4nc5cc(N6CCN(C)CC6)ccc5[nH]4)ccc3[nH]2)cc1OCC  growth percent (SRB; 10 µM, 48 h): 6.87%
CCN(CC)c1ccc(C=NNC(=O)CSc2nc3ccccc3c(=O)n2Cc2ccc(S(N)(=O)=O)cc2)c(O)c1  TGI (NCI five-dose screen): > 100 µM
CCCCN1CCN(c2ccc3[nH]c(-c4ccc5[nH]c(-c6ccc(C(F)(F)F)cc6)nc5c4)nc3c2)CC1  growth percent (SRB; 10 µM, 48 h): -16.1%
C#C[C@@]1(O)[C@@H](CO)O[C@@H](n2cc(Br)c3c(N)ncnc32)[C@@H]1O  TGI (SRB; NCI-60 screen): 49.2 µM and 77 µM
CCCCN1CCN(c2ccc3[nH]c(-c4ccc5[nH]c(-c6ccc(OCC)cc6)nc5c4)nc3c2)CC1  growth percent (SRB; 10 µM, 48 h): 68.2%
O=C(Nc1nnc2[nH]c(=S)[nH]c(-c3ccc(Cl)cc3)c1-2)c1ccccc1  cell growth (SRB; 10 µM, NCI60 single-dose screen; relative to: untreated): 106%
CN1CCN(c2ccc3[nH]c(-c4ccc5[nH]c(-c6ccc(C(F)(F)F)cc6)nc5c4)nc3c2)CC1  growth percent (SRB; 10 µM, 48 h): 87.2%
C#C[C@@]1(O)[C@@H](CO)O[C@@H](n2cc(Cl)c3c(N)ncnc32)[C@@H]1O  TGI (SRB; NCI-60 screen): 63.8 µM and > 100 µM
Cc1cc(=O)[nH]c(=O)n1Cc1cn(-c2cc3ccccc3oc2=O)nn1  growth percentage (NCI60 single-dose screen; 10 µM): 101%
Cc1cc(C)n(-c2nc(-c3ccc(Cl)cc3)c3c(NC(=O)c4ccccc4)nnc-3[nH]2)n1  cell growth (SRB; 10 µM, NCI60 single-dose screen; relative to: untreated): 85.2%
Cc1cc(=O)[nH]c(=O)n1Cc1cn(-c2c3ccccc3nc3ccccc23)nn1  growth percentage (NCI60 single-dose screen; 10 µM): 67%
O=C(Nc1nnc2n3c(nc(-c4ccc(Cl)cc4)c1-2)SCC3=O)c1ccccc1  cell growth (SRB; 10 µM, NCI60 single-dose screen; relative to: untreated): 104%
CCCCN1CCN(c2ccc3[nH]c(-c4ccc5[nH]c(-c6ccc(OCC)c(OCC)c6)nc5c4)nc3c2)CC1  growth percent (SRB; 10 µM, 48 h): 29%
Cn1cncc1C1=CN(c2ncnc3[nH]cnc23)CCS1  GI50 (melanoma cell line): 37.2 µM

A few entries again:
Cc1cc(=O)[nH]c(=O)n1Cc1cn(-c2cc3ccccc3oc2=O)nn1  growth percentage (NCI60 single-dose screen; 10 µM): 101%
Cc1cc(C)n(-c2nc(-c3ccc(Cl)cc3)c3c(NC(=O)c4ccccc4)nnc-3[nH]2)n1  cell growth (SRB; 10 µM, NCI60 single-dose screen; relative to: untreated): 85.2%
Cc1cc(=O)[nH]c(=O)n1Cc1cn(-c2c3ccccc3nc3ccccc23)nn1  growth percentage (NCI60 single-dose screen; 10 µM): 67%
